Experimental data from different studies.
Each numbered part is a random draw from the data of one study; scales do not carry over between parts.

Study 1
Target: Histone acetyltransferase KAT6A, winged helix 2, GST fusion (KAT6A, Homo sapiens, UniProt Q92794, residues 85-181)
Technique: protein binding microarray
Molecule type: double-stranded DNA, one strand shown
Medium: in vitro
Tested at: not given
Setting: 8-mer, flanks averaged, mean of 2 arrays, mostly near background
Relative to: not given
Reading: higher = stronger binding
Target sequence (chain): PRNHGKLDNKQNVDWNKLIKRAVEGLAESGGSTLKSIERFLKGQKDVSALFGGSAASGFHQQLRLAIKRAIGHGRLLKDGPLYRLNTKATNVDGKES
Sequence	E-score
GCTAGTCA	-0.146
ATTCTTAA	-0.052
AGACGACC	-0.225
TGGAGGAA	0.0346
CCCACATA	-0.122
AGCAAACA	-0.00189
GCCTAACC	-0.141
CGGTATCC	0.0766
AACAGTGG	-0.0556
CCTCAGGC	-0.0568
CGCACGCG	0.0982
AACTCTAG	-0.273
CGTTAGCA	0.108
CCCGATTA	0.0827
GCGCACCA	0.147
GTGTAACA	-0.119
TTACAGAA	-0.042
GTGAATTA	0.114
GACTATGA	-0.0712
TACCAGCA	-0.0764
ATCTGCCG	0.134
AGGGGCCC	0.056
CGAGGCAG	0.114
ATAACGCA	-0.0155

Study 2
Substance: PhoQ, residues 284 288 289 292 302 303 TTSMTC
Technique: Sort-seq
Item: YFP reporter
Medium: E. coli
Setting: PhoQ-PhoP variant library
With: 10 µM Mg2+
Relative to: high Mg2+ state
Reading: higher = stronger signaling
target	fold induction
PhoP, residues 12 14 15 18 19 VGHWL (Escherichia coli, UniProt P23836)	2.89
PhoP, residues 12 14 15 18 19 NFFVT (Escherichia coli, UniProt P23836)	8.45
PhoP, residues 12 14 15 18 19 LHHYF (Escherichia coli, UniProt P23836)	9.57
PhoP, residues 12 14 15 18 19 TPWTL (Escherichia coli, UniProt P23836)	7.75

Study 3
Target: Interferon regulatory factor 7, full length, phosphomimetic (IRF7, Homo sapiens, UniProt Q92985, residues 1-503, S101K/S471D/S472D/S475D/S476D/S477D/S483D/S484D/S487D)
Technique: protein-binding microarray
Molecule type: double-stranded DNA, one strand shown
Medium: in vitro
Tested at: 250 nM
Setting: 60-bp whole probe
With: salmon DNA 0.4 mg/ml
Relative to: random background probes
Reading: higher = stronger binding
Shared flanks, not repeated: GCCTAGCAC … GTCTTGATTCGCTTGACGCTGCTG
Target sequence (chain): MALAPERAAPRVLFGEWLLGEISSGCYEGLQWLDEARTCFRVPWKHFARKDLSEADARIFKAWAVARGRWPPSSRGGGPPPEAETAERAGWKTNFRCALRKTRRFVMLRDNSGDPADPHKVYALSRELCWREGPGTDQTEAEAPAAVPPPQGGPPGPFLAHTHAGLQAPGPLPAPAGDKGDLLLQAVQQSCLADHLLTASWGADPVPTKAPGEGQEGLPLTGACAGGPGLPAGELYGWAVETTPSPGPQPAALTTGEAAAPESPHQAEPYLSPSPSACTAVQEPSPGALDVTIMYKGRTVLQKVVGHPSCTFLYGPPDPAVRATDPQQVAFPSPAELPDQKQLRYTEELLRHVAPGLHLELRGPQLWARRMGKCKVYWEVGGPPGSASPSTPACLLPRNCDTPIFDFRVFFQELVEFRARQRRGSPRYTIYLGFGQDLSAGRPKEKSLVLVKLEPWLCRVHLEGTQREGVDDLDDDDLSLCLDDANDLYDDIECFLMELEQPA
Sequence	log fluorescence [z-score]
TTAGGTATCGGGACTGGGTTTGTGCTA	0.188
TTAGATTTAAGTTCCGATTAGTGCTAG	1.3
CTCCCCTTGCTTTCCAATTCGTGCTAG	0.588
GACGGTTTCCTACAGCTGACGTGCTAG	1.02
GACTGACTGGGGACTGGGGACGTGCTA	-0.375
TCATCTTTGCTTCACCCACTGTGCTAG	0.511
GACGGTTTCGGCTTTCGGGACGTGCTA	7.68
GACGATTTCAGTATCGAGTCGTGCTAG	1
TTATATTTCAGTTCCGATTAGTGCTAG	1.82
GACGGTCTCGGTCTTGGGACGTGCTAG	0.776
GACGAACTGGGGACTGGAGGCGTGCTA	-0.738
TTAGGTCTCGGTATCGGGTAGTGCTAG	2.32
GACGGTAACGACACTGGGGACGTGCTA	-0.484
CTTTTTATGCTTTCTTTAACTGTGCTA	2.47
GACGGTCTCGGTCTCGGTACGTGCTAG	1.16
TTAGATATCGGGACTCGATTAGTGCTA	0.773
CTAGGTATCGGGTTTCGGTTAGTGCTA	7.75
GACGGACTGCTACCGCTGACGTGCTAG	-0.963
GACGGTTTCGTTTCCCTGACGTGCTAG	13.6
TACGATATCGGGACTGGAGACGTGCTA	-0.188
CTTATTCTCTACTTGTGTCTGTGCTAG	2.46
GACGGTTTCGACTTACGGGACGTGCTA	12.4
GACGGTATCGGTCTCGGGAGGTGCTAG	0.425
TTAGGTTTCGGTATGGGTTAGTGCTAG	10.2

Study 4
Target: PABPC1L2, full length, GST fusion (mouse, UniProt A0ABA7IW68)
Technique: RNAcompete
Molecule type: RNA
Medium: in vitro
Tested at: 20 nM
Setting: 7-mer, probes averaged, single round
Relative to: mean of 7-mers
Reading: higher = stronger binding
Residues (chain): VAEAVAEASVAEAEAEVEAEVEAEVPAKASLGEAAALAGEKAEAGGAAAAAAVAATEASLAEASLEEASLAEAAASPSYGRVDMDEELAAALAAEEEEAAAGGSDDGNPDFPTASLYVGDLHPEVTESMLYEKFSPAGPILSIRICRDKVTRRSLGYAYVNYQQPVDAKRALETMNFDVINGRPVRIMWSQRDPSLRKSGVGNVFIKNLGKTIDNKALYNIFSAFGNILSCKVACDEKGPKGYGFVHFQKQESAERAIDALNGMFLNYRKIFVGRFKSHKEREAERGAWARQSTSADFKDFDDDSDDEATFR
Sequence	7-mer Z-score
GAUCAGU	-0.124
GUUCGCC	-0.402
UAACUAA	0.0859
AUCACUU	-0.282
GUAACCG	-0.0935
CUCGGGA	0.00254
GUCGUGC	-0.249
UCGCUAA	-0.209
CCUCAGU	-0.313
AUCGUAA	-0.148
GCGAUUU	-0.0573
GGGUGCA	0.18
AACGGCC	0.000733
GAGCUUU	-0.307
UGAUCAC	-0.157
GAAAACC	1.2
UAGACAG	-0.0681
AUUUUUA	-0.0428
UAGAAUA	0.0406
UCCAAUG	-0.244
UCCCGCC	-0.47

Some of these lines once more (study 1):
Sequence	E-score
GCTAGTCA	-0.146
ATTCTTAA	-0.052
AGACGACC	-0.225
TGGAGGAA	0.0346
